Experimental data from different studies.
Numbered parts are unrelated; each lists some results of a single study.

Sample 1
Target: Sal-like protein 4, full length isoform A (SALL4, Homo sapiens, UniProt Q9UJQ4, residues 1-1053)
UniProt Q9UJQ4, sequence (whole entry, looked up): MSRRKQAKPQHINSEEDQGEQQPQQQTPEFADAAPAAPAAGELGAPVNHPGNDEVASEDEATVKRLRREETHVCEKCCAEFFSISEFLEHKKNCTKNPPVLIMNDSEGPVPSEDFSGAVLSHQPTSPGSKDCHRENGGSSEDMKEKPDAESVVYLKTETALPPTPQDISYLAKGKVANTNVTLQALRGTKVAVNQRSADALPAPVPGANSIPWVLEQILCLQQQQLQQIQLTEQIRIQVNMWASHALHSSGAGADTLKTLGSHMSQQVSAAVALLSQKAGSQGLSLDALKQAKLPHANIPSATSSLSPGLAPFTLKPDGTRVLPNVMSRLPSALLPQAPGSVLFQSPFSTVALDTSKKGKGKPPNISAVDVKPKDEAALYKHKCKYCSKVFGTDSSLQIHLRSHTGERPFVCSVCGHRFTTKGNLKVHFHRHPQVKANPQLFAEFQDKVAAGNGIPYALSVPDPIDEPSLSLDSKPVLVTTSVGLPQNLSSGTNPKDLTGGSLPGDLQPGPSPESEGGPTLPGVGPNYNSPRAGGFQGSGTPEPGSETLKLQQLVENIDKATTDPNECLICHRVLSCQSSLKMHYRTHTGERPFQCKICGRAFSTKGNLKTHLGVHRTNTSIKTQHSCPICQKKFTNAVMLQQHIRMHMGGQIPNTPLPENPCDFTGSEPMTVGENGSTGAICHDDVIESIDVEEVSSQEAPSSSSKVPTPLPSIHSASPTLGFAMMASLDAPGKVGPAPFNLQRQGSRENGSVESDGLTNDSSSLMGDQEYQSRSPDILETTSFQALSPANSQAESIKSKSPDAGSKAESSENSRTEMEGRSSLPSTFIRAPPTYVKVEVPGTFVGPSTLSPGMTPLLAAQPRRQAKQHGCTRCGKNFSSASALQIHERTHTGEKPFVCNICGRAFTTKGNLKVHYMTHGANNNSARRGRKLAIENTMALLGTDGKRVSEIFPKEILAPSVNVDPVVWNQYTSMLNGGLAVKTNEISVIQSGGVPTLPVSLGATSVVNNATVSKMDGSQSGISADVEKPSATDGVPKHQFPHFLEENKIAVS
Technique: universal PBM
Molecule type: double-stranded DNA, one strand shown
Medium: in vitro
Concentration: 600 nM
Notes: 8-mer, flanks averaged, mean of replicates
Direction: higher = stronger binding
Oligonucleotide | E-score
GAAGGATC | -0.0799
GTATAGAC | 0.224
CAGGTACG | -0.203
CTTGATTA | 0.154
AGTTGGGA | -0.132
CAAGAATA | 0.299
AAGTAAGG | 0.132
GAGTAAAA | 0.156

Sample 2
Target: Runt-related transcription factor 3, Runt domain (RUNX3, Homo sapiens, UniProt Q13761, residues 53-186)
UniProt Q13761, sequence (53-186, looked up): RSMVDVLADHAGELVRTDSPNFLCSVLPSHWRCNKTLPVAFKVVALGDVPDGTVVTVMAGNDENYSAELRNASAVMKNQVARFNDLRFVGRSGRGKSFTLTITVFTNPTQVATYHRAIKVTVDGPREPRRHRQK
Technique: protein-binding microarray
Molecule type: hairpin DNA
Medium: in vitro
Concentration: not given
Notes: whole hairpin DNA, median over replicate spots
Relative to: not given
Direction: higher = stronger binding
Oligonucleotide | median fluorescence [a.u.]
GAGCCCTGTCGCGGTTGGCCTCCTGGCCAACCGCGACAGGGCTCACACTC (5mC at 4) | 6190
GAGGCCTGTTGTGGTAGGCCTCCTGGCCTACCACAACAGGCCTCACACTC | 4570
GAGGCCTGTCGCGGTTGGCGTCCTCGCCAACCGCGACAGGCCTCACACTC (5mC at 25) | 6440
GAGGCCTGTCGAGGTTGGCCTCCTGGCCAACCTCGACAGGCCTCACACTC | 5030
GAGGCCCGTCGCGGTTGGCCTCCTGGCCAACCGCGACGGGCCTCACACTC (5mC at 7) | 6490
GAGGCCTGGTGCGGTTGGCCTCCTGGCCAACCGCACCAGGCCTCACACTC (5mC at 36) | 6290
GAGGCCTGTCGGGGTTGGCCTCCTGGCCAACCCCGACAGGCCTCACACTC | 5540
GAGGCCTGTTGCGGGTGGCCTCCTGGCCACCCGCAACAGGCCTCACACTC | 5410

Mixed results
SMILES | cell line | test | setting | scale | quantity | result
Cn1cncc1[C@@](O)(COc1ccc(C#N)cc1-c1ccc(OC(F)(F)F)cc1)c1ccc(C#N)cc1 | HEK293T | high-content imaging | 10 µM, 24 h | – | apoptotic cells | 12.1%
Cc1nnsc1C(=O)Nc1ccc(-n2nc(C(F)(F)F)cc2C(F)(F)F)cc1 | mouse MPNST tumor cells | high-content immunofluorescence imaging, refers to: nuclear SOX9 | 10 µM, 12 h, mean of 2 replicates | relative to: DMSO control, higher = more nuclear SOX9 | nuclear SOX9 intensity | 130 % of DMSO
CN1CC[C@H](c2c(O)cc(O)c3c(=O)cc(-c4ccccc4Cl)oc23)[C@H](O)C1 | HuT78 | RNA-seq, refers to: ACAD11 | concentration not given | relative to: untreated control | log2 fold change | 0.733
